Experimental data pooled from the literature.
Parts stem from different laboratories: compare values within a part only. Several values in a cell are separate wells, animals, samples, runs or records.
UniProt Q04912, sequence (whole entry, looked up): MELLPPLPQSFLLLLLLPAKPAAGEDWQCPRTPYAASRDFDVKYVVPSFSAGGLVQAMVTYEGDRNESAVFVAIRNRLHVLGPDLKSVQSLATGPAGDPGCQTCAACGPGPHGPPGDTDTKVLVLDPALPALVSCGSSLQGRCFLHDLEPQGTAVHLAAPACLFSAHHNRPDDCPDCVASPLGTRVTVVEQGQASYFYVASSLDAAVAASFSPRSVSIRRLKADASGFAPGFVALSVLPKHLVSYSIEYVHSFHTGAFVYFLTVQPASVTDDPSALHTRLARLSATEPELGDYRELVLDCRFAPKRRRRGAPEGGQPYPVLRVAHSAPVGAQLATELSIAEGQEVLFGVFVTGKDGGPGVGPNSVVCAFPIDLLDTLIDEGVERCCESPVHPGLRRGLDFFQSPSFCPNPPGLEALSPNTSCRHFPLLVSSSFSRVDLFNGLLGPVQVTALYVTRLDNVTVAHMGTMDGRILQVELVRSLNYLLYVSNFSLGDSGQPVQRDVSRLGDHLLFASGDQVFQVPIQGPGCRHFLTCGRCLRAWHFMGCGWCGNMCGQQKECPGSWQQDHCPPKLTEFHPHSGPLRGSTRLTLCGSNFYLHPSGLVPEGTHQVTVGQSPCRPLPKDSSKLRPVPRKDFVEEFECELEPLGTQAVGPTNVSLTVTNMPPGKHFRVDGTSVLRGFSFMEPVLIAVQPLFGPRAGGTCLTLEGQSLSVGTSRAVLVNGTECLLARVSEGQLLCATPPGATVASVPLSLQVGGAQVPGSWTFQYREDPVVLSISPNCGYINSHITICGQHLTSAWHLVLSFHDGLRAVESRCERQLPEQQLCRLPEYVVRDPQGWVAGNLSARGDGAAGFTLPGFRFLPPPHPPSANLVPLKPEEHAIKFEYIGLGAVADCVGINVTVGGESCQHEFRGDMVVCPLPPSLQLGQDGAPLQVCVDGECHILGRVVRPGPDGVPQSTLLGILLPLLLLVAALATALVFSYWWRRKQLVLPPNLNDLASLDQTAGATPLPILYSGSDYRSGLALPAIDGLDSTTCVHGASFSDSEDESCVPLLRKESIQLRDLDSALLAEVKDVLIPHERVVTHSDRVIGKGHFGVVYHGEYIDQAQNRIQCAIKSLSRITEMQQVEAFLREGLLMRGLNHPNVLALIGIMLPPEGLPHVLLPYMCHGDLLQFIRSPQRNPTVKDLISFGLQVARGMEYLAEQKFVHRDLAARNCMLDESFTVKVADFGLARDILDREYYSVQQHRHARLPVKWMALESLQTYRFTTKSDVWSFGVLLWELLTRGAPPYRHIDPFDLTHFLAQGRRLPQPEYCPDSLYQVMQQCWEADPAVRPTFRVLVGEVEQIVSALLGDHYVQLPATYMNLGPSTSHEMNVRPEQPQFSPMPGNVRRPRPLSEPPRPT
UniProt P35626, sequence (whole entry, looked up): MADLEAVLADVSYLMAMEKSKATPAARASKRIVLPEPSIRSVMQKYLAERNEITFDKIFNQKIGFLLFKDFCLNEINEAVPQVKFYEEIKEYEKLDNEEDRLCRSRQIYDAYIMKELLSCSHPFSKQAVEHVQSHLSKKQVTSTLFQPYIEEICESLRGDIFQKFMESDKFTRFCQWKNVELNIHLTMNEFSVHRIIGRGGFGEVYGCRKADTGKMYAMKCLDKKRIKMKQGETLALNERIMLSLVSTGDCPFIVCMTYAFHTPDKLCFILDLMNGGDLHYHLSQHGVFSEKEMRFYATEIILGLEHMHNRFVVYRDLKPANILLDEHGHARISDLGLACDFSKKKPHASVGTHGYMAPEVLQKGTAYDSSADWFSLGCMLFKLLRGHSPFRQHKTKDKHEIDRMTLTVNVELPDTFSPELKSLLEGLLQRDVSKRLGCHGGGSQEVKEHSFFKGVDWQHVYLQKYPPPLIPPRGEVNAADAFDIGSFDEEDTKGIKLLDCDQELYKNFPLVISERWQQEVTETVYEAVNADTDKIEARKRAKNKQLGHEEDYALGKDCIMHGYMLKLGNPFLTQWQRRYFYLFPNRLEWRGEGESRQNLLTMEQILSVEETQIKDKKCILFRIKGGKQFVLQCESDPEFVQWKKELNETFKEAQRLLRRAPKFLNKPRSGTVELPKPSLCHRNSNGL
UniProt P51617, sequence (whole entry, looked up): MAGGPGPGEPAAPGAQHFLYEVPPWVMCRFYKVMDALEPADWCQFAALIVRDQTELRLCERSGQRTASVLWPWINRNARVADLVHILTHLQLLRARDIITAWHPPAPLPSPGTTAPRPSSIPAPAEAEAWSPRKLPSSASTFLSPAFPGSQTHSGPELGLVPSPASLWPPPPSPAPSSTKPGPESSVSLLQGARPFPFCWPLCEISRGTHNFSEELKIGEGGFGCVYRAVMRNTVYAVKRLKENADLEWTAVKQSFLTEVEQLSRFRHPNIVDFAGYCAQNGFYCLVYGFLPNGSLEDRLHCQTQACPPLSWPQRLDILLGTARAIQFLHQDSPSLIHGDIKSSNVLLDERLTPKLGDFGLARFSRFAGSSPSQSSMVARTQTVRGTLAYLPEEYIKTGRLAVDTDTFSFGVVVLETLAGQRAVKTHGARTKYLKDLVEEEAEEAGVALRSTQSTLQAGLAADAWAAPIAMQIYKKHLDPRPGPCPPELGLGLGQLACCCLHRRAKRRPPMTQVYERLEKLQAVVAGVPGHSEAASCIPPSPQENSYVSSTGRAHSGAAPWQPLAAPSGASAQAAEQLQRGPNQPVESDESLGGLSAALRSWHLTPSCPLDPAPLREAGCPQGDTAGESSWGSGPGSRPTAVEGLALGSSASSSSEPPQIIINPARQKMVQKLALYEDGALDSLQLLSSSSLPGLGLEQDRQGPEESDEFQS
UniProt Q9UKI8, sequence (whole entry, looked up): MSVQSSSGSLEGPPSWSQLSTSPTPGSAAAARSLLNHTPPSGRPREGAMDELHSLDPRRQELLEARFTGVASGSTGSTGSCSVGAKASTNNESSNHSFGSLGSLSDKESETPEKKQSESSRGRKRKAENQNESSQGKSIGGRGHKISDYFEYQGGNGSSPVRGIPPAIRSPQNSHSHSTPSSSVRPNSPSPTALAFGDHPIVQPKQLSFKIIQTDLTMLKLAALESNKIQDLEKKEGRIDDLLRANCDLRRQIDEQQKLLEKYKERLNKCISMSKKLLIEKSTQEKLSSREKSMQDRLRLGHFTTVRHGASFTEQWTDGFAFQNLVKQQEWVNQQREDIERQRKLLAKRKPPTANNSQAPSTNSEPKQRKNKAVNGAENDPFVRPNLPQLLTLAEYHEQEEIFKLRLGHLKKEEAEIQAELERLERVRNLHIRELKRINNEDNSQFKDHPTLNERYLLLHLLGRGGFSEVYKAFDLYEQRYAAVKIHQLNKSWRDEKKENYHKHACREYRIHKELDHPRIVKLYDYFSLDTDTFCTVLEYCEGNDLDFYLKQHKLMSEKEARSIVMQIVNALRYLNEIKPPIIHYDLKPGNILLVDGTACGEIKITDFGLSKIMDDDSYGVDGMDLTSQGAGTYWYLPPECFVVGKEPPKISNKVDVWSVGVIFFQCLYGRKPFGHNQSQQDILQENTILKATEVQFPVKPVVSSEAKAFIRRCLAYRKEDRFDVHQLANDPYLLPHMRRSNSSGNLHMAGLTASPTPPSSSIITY
UniProt O15264, sequence (whole entry, looked up): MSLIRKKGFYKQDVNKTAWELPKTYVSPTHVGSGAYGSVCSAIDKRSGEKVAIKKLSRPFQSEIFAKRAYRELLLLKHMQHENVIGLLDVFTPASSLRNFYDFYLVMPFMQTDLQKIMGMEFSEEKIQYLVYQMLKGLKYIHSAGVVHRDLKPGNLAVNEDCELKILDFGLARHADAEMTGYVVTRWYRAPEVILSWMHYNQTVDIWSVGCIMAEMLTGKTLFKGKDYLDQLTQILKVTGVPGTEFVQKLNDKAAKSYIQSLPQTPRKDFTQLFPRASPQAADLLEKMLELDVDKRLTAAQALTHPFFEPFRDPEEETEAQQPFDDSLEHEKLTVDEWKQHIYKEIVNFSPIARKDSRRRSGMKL
UniProt Q9P289, sequence (whole entry, looked up): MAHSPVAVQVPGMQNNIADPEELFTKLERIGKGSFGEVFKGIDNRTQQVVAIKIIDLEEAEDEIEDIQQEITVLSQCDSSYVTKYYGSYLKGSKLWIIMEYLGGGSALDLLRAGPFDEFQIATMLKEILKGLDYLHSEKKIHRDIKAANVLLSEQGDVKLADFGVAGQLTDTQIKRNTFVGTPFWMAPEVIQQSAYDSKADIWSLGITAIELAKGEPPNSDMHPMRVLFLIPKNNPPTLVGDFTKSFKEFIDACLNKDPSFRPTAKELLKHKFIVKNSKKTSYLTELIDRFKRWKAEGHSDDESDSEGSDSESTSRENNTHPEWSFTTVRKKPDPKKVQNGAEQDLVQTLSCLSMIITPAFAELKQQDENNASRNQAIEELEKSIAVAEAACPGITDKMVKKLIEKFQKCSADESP
UniProt Q15835, sequence (whole entry, looked up): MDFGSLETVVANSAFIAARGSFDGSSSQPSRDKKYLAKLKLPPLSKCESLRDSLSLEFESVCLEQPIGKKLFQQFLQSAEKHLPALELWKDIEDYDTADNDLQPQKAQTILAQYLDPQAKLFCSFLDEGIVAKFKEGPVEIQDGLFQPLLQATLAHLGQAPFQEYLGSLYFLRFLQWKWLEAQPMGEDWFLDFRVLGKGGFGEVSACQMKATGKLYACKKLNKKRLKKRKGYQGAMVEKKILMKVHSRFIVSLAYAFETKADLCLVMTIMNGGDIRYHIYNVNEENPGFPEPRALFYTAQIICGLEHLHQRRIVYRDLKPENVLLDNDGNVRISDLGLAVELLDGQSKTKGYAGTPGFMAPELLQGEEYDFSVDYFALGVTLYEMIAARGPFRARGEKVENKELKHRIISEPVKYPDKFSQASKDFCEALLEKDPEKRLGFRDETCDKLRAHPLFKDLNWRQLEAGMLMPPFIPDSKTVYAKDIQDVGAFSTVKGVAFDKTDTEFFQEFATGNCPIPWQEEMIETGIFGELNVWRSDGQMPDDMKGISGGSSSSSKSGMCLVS

Sample 1
Structure (SMILES): COc1cc(C(=O)N2CCC(N3CCN(C)CC3)CC2)ccc1Nc1ncc2c(n1)N(C)c1ccccc1C(=O)N2C
Concentration: concentration not given
The inhibition was -7.8% (NEK3 human; KiNativ profiling; human PBMC lysate; ADP probe, activation loop site).
NEK7 human; KiNativ profiling; human PBMC; activation loop site, with: ATP acyl phosphate probe — inhibition: 0.4%.
The inhibition was 9% (MAP2K4 (human); probe labelling, KiNativ ATP probe; human PBMC lysate; LYS2 labelled site).
The inhibition was 3% (LYN (human); probe labelling, KiNativ ADP probe; human PBMC lysate; LYS1 labelled site).

Sample 2
Cell line: mouse MPNST tumor cells
Method: high-content immunofluorescence imaging
Item: nuclear SOX9
Concentration: 10 µM
Time: 12 h
Setting: mean of 2 replicates
Relative to: DMSO control
Direction: higher = more nuclear SOX9
`CCC(=O)O[C@]1(C(=O)SCF)[C@H](C)C[C@H]2[C@@H]3C[C@H](F)C4=CC(=O)C=C[C@]4(C)[C@@]3(F)[C@@H](O)C[C@@]21C`: “nuclear SOX9 intensity” 90.4 % of DMSO and 80.8 % of DMSO.
For `Nc1ccc(-c2cnc(N)c(-c3ccc(Cl)cc3)c2)cn1`, “nuclear SOX9 intensity” read 119 % of DMSO.
`CCOC(=O)/C=C(C)/C=C/C=C(C)/C=C/c1c(C)cc(OC)c(C)c1C` — result for “nuclear SOX9 intensity”: 126 % of DMSO.
`CC1=C(CC(=O)O)c2cc(F)ccc2/C1=C\c1ccc([S+](C)[O-])cc1` (stereo not shown): “nuclear SOX9 intensity” 90.7 % of DMSO.
`CCCCc1nc(Cl)c(CO)n1Cc1ccc(-c2ccccc2-c2nnn[nH]2)cc1` — result for “nuclear SOX9 intensity”: 99.4 % of DMSO and 96.4 % of DMSO.
`COc1nc(N)nc2c1ncn2[C@@H]1O[C@H](CO)[C@@H](O)[C@@H]1O`: “nuclear SOX9 intensity” 109 % of DMSO and 118 % of DMSO.
`C/C(=C(\CCOP(=O)(O)O)SC(=O)c1ccccc1)N(C=O)Cc1cnc(C)nc1N` — result for “nuclear SOX9 intensity”: 100 % of DMSO.

Sample 3
Structure (SMILES): COc1cc(-c2cn(C3CCc4c(F)cccc4N(CC(F)(F)F)C3=O)nn2)ccc1-n1cnc(C)c1 (stereo not shown)
Read-out: cell-free assay
Method: competition with immobilised ligand
Concentration: 1 µM
For PAK6 (Homo sapiens, UniProt Q9NQU5): remaining binding read 100%.
GRK3 (Homo sapiens, UniProt P35626) — remaining binding: 100%.
It gave 78% for remaining binding (PHKG1 (Homo sapiens, UniProt Q16816)).
MAP3K2 (Homo sapiens, UniProt Q9Y2U5) — remaining binding: 94%.
The remaining binding was 78% (Tyrosine-protein kinase ABL1, phosphorylated (ABL1, Homo sapiens, UniProt P00519, F317L)).
The remaining binding was 100% (MST1R (Homo sapiens, UniProt Q04912)).
It gave 100% for remaining binding (STK25 (Homo sapiens, UniProt O00506)).
It gave 100% for remaining binding (STK33 (Homo sapiens, UniProt Q9BYT3)).
The remaining binding was 100% (TLK1 (Homo sapiens, UniProt Q9UKI8)).
For GRK4 (Homo sapiens, UniProt P32298): remaining binding read 100%.
WNK2 (Homo sapiens, UniProt Q9Y3S1) — remaining binding: 53%.
It gave 100% for remaining binding (PIM2 (Homo sapiens, UniProt Q9P1W9)).
The remaining binding was 84% (RET (Homo sapiens, UniProt P07949)).
It gave 100% for remaining binding (IRAK1 (Homo sapiens, UniProt P51617)).
MTOR (Homo sapiens, UniProt P42345) — remaining binding: 100%.
It gave 80% for remaining binding (MAPK7 (Homo sapiens, UniProt Q13164)).
It gave 72% for remaining binding (MAPK10 (Homo sapiens, UniProt P53779)).
It gave 100% for remaining binding (MAPK13 (Homo sapiens, UniProt O15264)).
For TBK1 (Homo sapiens, UniProt Q9UHD2): remaining binding read 100%.
For CSK (Homo sapiens, UniProt P41240): remaining binding read 100%.
STK26 (Homo sapiens, UniProt Q9P289) — remaining binding: 90%.
The remaining binding was 98% (AXL (Homo sapiens, UniProt P30530)).
The remaining binding was 100% (FYN (Homo sapiens, UniProt P06241)).
For AKT3 (Homo sapiens, UniProt Q9Y243): remaining binding read 100%.
The remaining binding was 100% (BTK (Homo sapiens, UniProt Q06187)).

Sample 4
Structure (SMILES): CC(C)n1cnc(-c2ccc(F)cc2)c1-c1ncc(C(=O)Nc2ccc(N3CCN(C)CC3)cc2)[nH]1
Method: phase 2a trial
Species: idiopathic pulmonary fibrosis patients
The “patients with cholecystitis” was 0% (60 mg once daily, adverse event grade 3).
It gave 0% for “patients with cholecystitis” (30 mg once daily, adverse event grade 3).
For 30 mg once daily, adverse event grade 4: “patients with cholecystitis” read 0%.
The “patients with cholecystitis” was 0% (30 mg once daily, adverse event grade 2).

Sample 5
Organism: Sarcocystis neurona
Read-out: parasite growth
Concentration: 10 µM
Time: 96 h
Setting: first screen
Relative to: untreated
For `CC(=O)OCC(=O)[C@@]1(O)CC[C@H]2[C@@H]3CCC4=CC(=O)CC[C@]4(C)[C@H]3[C@@H](O)C[C@@]21C`, “log2 fold change” read 0.0454.
`COc1ccccc1OCC(O)CN1CCN(CC(=O)Nc2c(C)cccc2C)CC1` (stereo not shown) — result for “log2 fold change”: -0.17.
`OC(CCN1CCCC1)(c1ccccc1)C1CCCCC1` (stereo not shown) — result for “log2 fold change”: -0.29.
`CCc1ccc(CCOc2ccc(CC3SC(=O)NC3=O)cc2)nc1` (stereo not shown) — result for “log2 fold change”: 0.39.
For `COc1ccccc1OCCNCC(O)COc1cccc2[nH]c3ccccc3c12` (stereo not shown), “log2 fold change” read -0.9.
`CC1(C)S[C@@H]2[C@H](NC(=O)[C@H](N)c3ccccc3)C(=O)N2[C@H]1C(=O)O` — result for “log2 fold change”: 0.03.
Under “log2 fold change”, `CC=CC(=O)N(CC)c1ccccc1C` (mixture of isomers) is recorded as 0.14.
For `NS(=O)(=O)c1cc(C(=O)O)c(NCc2ccco2)cc1Cl`, “log2 fold change” read 0.4.

Sample 6
Compound: Cc1sc(C(=O)NC2COC2)cc1-n1cc(NC(=O)Nc2c(F)cccc2Cl)cn1
Read-out: enzyme activity
Concentration: 10 µM
Relative to: untreated control
It gave 50.1% for remaining activity (MAPK9 (Homo sapiens, UniProt P45984)).
For MARK1 (Homo sapiens, UniProt Q9P0L2): remaining activity read 95.2%.
The remaining activity was 109% (GRK1 (Homo sapiens, UniProt Q15835)).
For MAP3K20 (Homo sapiens, UniProt Q9NYL2): remaining activity read 85.4%.

A few entries again (sample 3):
It gave 72% for remaining binding (MAPK10 (Homo sapiens, UniProt P53779)).
It gave 100% for remaining binding (MAPK13 (Homo sapiens, UniProt O15264)).
For TBK1 (Homo sapiens, UniProt Q9UHD2): remaining binding read 100%.
For CSK (Homo sapiens, UniProt P41240): remaining binding read 100%.
STK26 (Homo sapiens, UniProt Q9P289) — remaining binding: 90%.
